Results collected from several papers.
Parts stem from different laboratories: compare values within a part only.

Set 1
Target: Prothrombin, mature alpha-thrombin (F2, Homo sapiens, UniProt P00734)
Method: aptamer microarray, sandwich
Form: DNA with 2'F-ANA
Sample: in vitro
Concentration: 200 nM
Setting: whole 15-mer aptamer, many near background
Together with: Cy3 exosite-II aptamer, 400 nM
Reading: higher = stronger binding
Sequence: GGTTGGTGTGGTTGG
Modification | mean fluorescence intensity [a.u.]
2'F-ANA at 4 7 9 10 13 14 15 | 61.6
2'F-ANA at 1 3 4 6 7 8 9 12 15 | 424
2'F-ANA at 3 4 5 6 8 | 109
2'F-ANA at 1 2 5 6 9 11 14 15 | 49.8
2'F-ANA at 1 3 4 8 11 14 | 80.9
2'F-ANA at 2 4 5 7 9 11 13 14 15 | 45.4
2'F-ANA at 3 4 5 6 8 9 10 11 12 13 | 56.8
2'F-ANA at 3 4 6 7 9 10 11 12 14 | 174
2'F-ANA at 1 2 5 7 9 11 14 | 105
2'F-ANA at 4 10 12 13 14 | 64.2
2'F-ANA at 1 3 4 5 9 10 11 12 13 | 46
2'F-ANA at 1 2 4 5 7 8 9 11 12 13 15 | 66.3
2'F-ANA at 4 5 6 7 8 11 12 13 | 104
2'F-ANA at 1 3 6 8 9 11 13 14 15 | 84.2
2'F-ANA at 2 3 5 6 7 10 11 12 14 15 | 51.1
2'F-ANA at 1 2 3 4 5 7 11 12 14 15 | 47.1
2'F-ANA at 1 2 3 6 7 10 11 15 | 164
2'F-ANA at 5 6 7 8 12 14 | 63.5
2'F-ANA at 1 3 4 5 6 7 8 11 15 | 58.9
2'F-ANA at 1 2 3 4 11 12 13 14 | 68.6
2'F-ANA at 2 3 7 14 | 513
2'F-ANA at 3 5 8 10 13 14 | 69.5
2'F-ANA at 1 2 8 12 | 469
2'F-ANA at 2 3 4 5 7 8 10 11 | 50.9
2'F-ANA at 3 4 5 6 7 8 9 12 | 212

Set 2
Target: Ras GTPase-activating protein-binding protein 1, RRM domain (G3BP1, Homo sapiens, UniProt Q13283)
Chain of UniProt Q13283 (whole entry, looked up): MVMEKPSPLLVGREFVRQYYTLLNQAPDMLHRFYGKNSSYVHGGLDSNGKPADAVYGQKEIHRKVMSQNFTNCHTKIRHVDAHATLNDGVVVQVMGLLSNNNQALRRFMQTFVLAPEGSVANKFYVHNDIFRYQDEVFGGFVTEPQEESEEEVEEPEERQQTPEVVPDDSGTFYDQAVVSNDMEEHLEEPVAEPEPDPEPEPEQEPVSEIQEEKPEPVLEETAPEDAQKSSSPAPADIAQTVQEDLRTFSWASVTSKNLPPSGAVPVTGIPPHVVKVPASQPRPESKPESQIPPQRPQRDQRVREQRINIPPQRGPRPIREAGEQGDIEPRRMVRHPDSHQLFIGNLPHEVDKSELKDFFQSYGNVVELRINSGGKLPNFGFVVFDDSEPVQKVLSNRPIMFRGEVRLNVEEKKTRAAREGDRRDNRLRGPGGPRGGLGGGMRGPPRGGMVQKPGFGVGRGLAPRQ
Method: RNA Bind-n-Seq
Form: RNA
Sample: in vitro
Concentration: 1 µM
Setting: whole 134-nt RNA, ends assumed
Together with: 150 mM KCl
Baseline: input library
Reading: higher = stronger binding
Sequence | log2 enrichment
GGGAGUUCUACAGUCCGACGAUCAAGUCCUGUGCUACACAUCGUAUGUACCGAAUCGGGAAAAAGGGUUUUUGGGAGGGAAAGUAUUAUGUUACGCCGUUCGGAUCUGCACUUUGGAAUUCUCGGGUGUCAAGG | 0.779
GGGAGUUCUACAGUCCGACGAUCUCAAGUCCUGUGCUACACAUCGUAUGUACCGAAUCGGGGUUGGGUUGGGGUUGGGAAAGUAUUAUGUUACGCCGUUCGGAUCUGCACUUCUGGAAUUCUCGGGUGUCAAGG | 0.663
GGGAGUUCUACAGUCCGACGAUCGUCCUGUGCUACACAUCGUAUGUACCGAAUCGGGAAAAAAGGAAAAAAGGAAAAAAGGAAAGUAUUAUGUUACGCCGUUCGGAUCUGCACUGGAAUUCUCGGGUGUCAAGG | 0.0617
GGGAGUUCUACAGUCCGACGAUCUAACUUUAGAGGAGGAUCUGAUGGAUAUGGCAGUGGACGUGGAUUUGGGGAUGGCUAUAAUGGGUAUGGAGGAGGACCUGUAGGUGGCAAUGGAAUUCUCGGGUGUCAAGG | -0.327
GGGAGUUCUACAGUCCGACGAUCCCUGUGCUACACAUCGUAUGUACCGAAUCGGGGCCCCCCGGGCCCCCCGGGCCCCCCGGGGAAAGUAUUAUGUUACGCCGUUCGGAUCUGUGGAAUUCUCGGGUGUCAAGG | -0.642
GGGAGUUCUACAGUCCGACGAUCUCCUCAAGUCCUGUGCUACACAUCGUAUGUACCGAAUCGGAGGAGGUUUGGAAAGUAUUAUGUUACGCCGUUCGGAUCUGCACUUCCAGCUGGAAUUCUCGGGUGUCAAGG | -0.292
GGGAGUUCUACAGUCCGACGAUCUCCUGUGCUACACAUCGUAUGUACCGAAUCAAAUUUUUAAAUUUUUAAACCCCCCCAAAAAAGUAUUAUGUUACGCCGUUCGGAUCUGCAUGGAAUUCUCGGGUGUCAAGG | -0.929
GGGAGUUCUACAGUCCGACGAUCUAACUUUAGAGGAGGAUCUGAUGGAUAUGGCAGUGGACGUGGAUUUGGGGAUGGCUAUAAUGGGUAUGUAGGAGGACCUGGAGGUGGCAAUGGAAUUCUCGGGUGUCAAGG | -0.403
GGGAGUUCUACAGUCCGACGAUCCUGUGCUACACAUCGUAUGUACCGAAUCGGGAAAAAAAGGGAAAAAAAGGGGAAAAAAAGGAAAGUAUUAUGUUACGCCGUUCGGAUCUGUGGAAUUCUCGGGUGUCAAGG | 0.125
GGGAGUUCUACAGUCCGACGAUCGCAGGAAGUAAAAACAAAUGGAAAUGCUUCGGAUAGUGGCAGGGGUGGGGGUUGCUAAGGAAAGGGUGGGAUGGGAGUGAGUAAAGAGUUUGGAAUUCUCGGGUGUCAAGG | 1.13
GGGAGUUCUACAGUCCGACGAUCUAACUUUAGAGGCGGAUCUGAUGGAUAUGGCAGUGGACGUGGAUUUGGGGAUGGCUAUAAUGGGUAUGGAGGAGGACCUGGAGGUGGCAAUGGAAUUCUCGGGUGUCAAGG | -0.863
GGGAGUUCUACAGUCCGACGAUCUGCAGAUUGAUGAGUAUGAUCACUCCAAGCCCAUCCAGGGGCAACAGAAGAAGCCCUUUGAGGUGCACUGGAGGAAGCACACCCUGUCCUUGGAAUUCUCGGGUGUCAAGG | 0.0252
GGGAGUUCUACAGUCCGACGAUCUUAGGGUCAUGUGAAGGUGGUGCGCUACUUAGUCAAAGAAGUCAAUCAGUUUCCAUCAGAUUCUGAAUGUAUGAGAUACAUAGCAACCAUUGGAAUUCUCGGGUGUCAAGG | -0.166
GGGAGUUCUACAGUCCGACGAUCUGGCCCUGGUGGCAUGCGGGGAGGAAGAGGUGGCCUCAUGGAUCGUGGUGGUCCCGGUGGAAUGUUCAGAGGUGGCCGUGGCGGAGACAGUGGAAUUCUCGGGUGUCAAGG | 1.36

Set 3
Target: Histone acetyltransferase KAT6A, winged helix 1, GST fusion (KAT6A, Homo sapiens, UniProt Q92794, residues 1-85)
Method: protein binding microarray
Form: double-stranded DNA, one strand shown
Sample: in vitro
Concentration: not given
Setting: 8-mer, flanks averaged, mean of 2 arrays, mostly near background
Baseline: not given
Reading: higher = stronger binding
Target sequence (chain): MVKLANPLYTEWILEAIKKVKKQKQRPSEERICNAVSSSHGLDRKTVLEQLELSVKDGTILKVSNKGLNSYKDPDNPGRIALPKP
Sequence | E-score
AGTACGTG | -0.123
ACCCCCAA | -0.272
AGTGGGGC | -0.21
CGAACCAC | 0.0748
AGACTAGG | -0.103
CATCCGAC | 0.0259
CATTGGAC | -0.0836
GAACCAGC | -0.0938
AATTAAAG | -0.189
CCGCAAAG | 0.238
CCTGATCA | -0.238
AAGAAAGG | -0.209
ATGGAAGA | -0.212
GCTAGGGA | -0.084
CACTGCAC | -0.133
TGATGGCA | -0.158

Set 4
Target: RING finger protein unkempt homolog, zinc fingers 1-6, SBP tag (UNK, Homo sapiens, UniProt Q9C0B0, residues 30-357)
Chain of UniProt Q9C0B0 (30-357, looked up): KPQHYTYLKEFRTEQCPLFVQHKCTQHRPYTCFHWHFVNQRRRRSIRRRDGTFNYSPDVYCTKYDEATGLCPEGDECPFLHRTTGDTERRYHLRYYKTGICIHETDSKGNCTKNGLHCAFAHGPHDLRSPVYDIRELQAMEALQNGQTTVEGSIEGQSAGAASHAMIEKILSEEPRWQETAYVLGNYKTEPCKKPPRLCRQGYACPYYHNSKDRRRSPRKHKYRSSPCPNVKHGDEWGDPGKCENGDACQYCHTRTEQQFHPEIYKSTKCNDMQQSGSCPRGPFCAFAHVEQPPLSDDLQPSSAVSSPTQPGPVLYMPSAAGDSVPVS
Method: RNA Bind-n-Seq
Form: RNA
Sample: in vitro
Concentration: 100 nM
Setting: RNA with constant flanks, vertebrate orthologous sites, ends assumed
Baseline: input RNA pool
Reading: higher = stronger binding
Sequence | bound/input enrichment
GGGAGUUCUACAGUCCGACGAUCCAAAAAAGCGUUUCUACUGGGUUUUGCCUGUAAGAAAAAACAAAAAUGUACCCGAGCACAUAGAGCUUUGAAUAGCACUAACCAAUGCCUUUUUAGAUGUAUUUUUGAUGUACAUAUCUACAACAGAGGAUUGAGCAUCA | 0.37 ratio
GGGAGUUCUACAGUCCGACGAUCAAAUUUAUUUCAUGCCCUGGACUCCCUACCGCACUGAUACUUUGAUAGAAUUUGCUUCCUUAGAAGAUUUCCAAAACAGUCGCCAAACAACAACUUACAAACUUCCAAAUCGAGUAGAUGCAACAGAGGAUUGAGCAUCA | 1.17 ratio
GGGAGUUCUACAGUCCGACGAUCCGCAUGAGCAUCUAUCCAGUUUUAAGCCACUUCCUGAUAAGGCUCUCCAUGUAUUUAUCCUAUUGACACCCCUGUUUUAUGAAUGGCAGUGUGAGUGCCGAGGGGCUCGGUGUUUACAGCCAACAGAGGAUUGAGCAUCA | 0.45 ratio
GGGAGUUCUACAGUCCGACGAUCGAGCUAAAGGAGUUAGUAUCUUUAUUUUUGUAUCAAAGAUAAAGGUUAUUUUGCAAUUAUUAGGAUUUCUACACAACUCUGAUCUCUGUUGCUUUUGUAAACAAAUUCUUUGAUUUUAGGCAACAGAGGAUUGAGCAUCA | 0.775 ratio
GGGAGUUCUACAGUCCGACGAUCCUAGUCUUCCACUUAGGGUUGGCCUCAAAUCUAUAGGAUUUAUGACAAAUGUAUCAUAUCUAUUAAUAGUUGAGUUUAAUAUUUUUAUUCACCUAUAAAUAAAGAUGGCAUCUUCUCCAUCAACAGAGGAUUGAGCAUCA | 0.281 ratio
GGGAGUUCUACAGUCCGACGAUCGAUUUGGACCUUGGAGCUGAACCAGGGAGCUAGCAAAAGUAAAGCAGACUUAUAAAAUUAUAGCUAUGUGCAGCUGCACAACACAGUCCUACCACUAGCAGCUGUGUUAAAGUAUUUAUACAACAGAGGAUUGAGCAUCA | 0.751 ratio
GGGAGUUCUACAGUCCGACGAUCUUGGGACCAGCUCACCAAAUAGGAAUAAUAGUAAAAAAUAUAAACAAAAUGAUAUUUGUAUAGAAAAGACAGACGCUAAAUCAUGCAAGAUAAAUGCUGCCAGUGUUCAAGGCUCUAAAGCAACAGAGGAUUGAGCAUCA | 4.75 ratio
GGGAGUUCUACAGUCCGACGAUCUUUACAAGAUUUGGACCUAGAACCAGGAGUUAGCAAAAGUAAAGCAGGCUUGUAAAAUUACAGUCAUAUGCCACUGCACAGCAACAGUACUACCACUAGCAGCUGUAUUUGUAAAGAAAACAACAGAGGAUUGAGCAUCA | 0.746 ratio
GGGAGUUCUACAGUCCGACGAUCAGUUUGUAUGUACAUUAUUCACAUUCCUCUCUGUUGUGUUUUGGGGGAAAAAAAGACAUUUUAGCCUUUUUUAAGGUUAUUGAUUUAAUUUUAUGUUAUUUGGUUGCAUGAAGUUGCCCUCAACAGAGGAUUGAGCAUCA | 0.448 ratio
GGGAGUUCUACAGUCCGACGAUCCAUCUCUCAUUUAAAGAUUCCAAAAUAACUUUGAAUUUUUCAAGAGUUGCUAGUUUUACUUAGCUCUACCCUCAGGAGGUGUUAAGAGUUCACCACCAGCAGAUCGCUGUCUGCUUUAUGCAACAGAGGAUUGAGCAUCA | 0.461 ratio
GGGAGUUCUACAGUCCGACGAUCAUGUAGUUUGUUUUUAAUUUUGAGCAAAAUCUUAUUGUACUUGAAUGUGCCCUGUUUUGUUAGCACACCUAGACUUGCUGUAACUGUACUCAUGUCCCAGUAUGUACGUUCUUUCUAUGACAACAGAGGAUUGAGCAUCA | 1.06 ratio

For quick reference, copied from above (set 3):
Sequence | E-score
AGTACGTG | -0.123
AGTGGGGC | -0.21
AGACTAGG | -0.103
ACCCCCAA | -0.272
CATTGGAC | -0.0836
CCGCAAAG | 0.238
TGATGGCA | -0.158
CATCCGAC | 0.0259
AAGAAAGG | -0.209
AATTAAAG | -0.189
CCTGATCA | -0.238
